Published values pooled from the literature.
A part holds a random share of what one study measured. Changes are numbered by the printed parent chain.

Study 1 — method: protein-binding microarray; form: double-stranded DNA, one strand shown; matrix: in vitro; concentration: 2200 nM top; notes: 60-bp whole probe; together with: salmon DNA 0.4 mg/ml; baseline: random background probes; direction: higher = stronger binding; all sequences stand within: GCCTAGCAC … GTCTTGATTCGCTTGACGCTGCTG
Target: Interferon regulatory factor 7, full length, phosphomimetic (IRF7, Homo sapiens, UniProt Q92985, residues 1-503, S471D/S472D/S475D/S476D/S477D/S483D/S484D/S487D)
Construct (chain): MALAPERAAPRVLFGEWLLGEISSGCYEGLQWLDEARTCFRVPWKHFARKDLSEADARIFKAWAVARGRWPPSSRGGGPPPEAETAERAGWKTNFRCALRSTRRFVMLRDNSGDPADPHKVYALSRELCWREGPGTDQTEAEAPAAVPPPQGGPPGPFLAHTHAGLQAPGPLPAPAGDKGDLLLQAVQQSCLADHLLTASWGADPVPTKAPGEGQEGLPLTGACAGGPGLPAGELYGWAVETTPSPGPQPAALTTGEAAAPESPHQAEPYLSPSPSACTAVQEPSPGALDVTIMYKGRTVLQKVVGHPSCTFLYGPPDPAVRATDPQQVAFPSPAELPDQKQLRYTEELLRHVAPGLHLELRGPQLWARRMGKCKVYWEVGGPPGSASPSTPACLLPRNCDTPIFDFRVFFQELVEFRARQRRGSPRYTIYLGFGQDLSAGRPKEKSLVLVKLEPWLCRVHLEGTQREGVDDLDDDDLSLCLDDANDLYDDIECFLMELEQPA
Oligonucleotide	fitted relative affinity [z-score]
TTAGATTTCAGGTCCGATTAGTGCTAG	0.857
GACGGTATCGGGACTGGCGACGTGCTA	-0.428
CTGCTTGAAACTCTTACCCCGTGCTAG	0.245
TCATGTTTGGTGTCTTTTACTGTGCTA	1.63
TTAGGACTGGCCTATCGGTTAGTGCTA	-0.547
TTAGAACTGGGGACTCGATTAGTGCTA	-0.186
TAAGAACTGAGTCTCGATTAGTGCTAG	-0.177
GACGGCCTCGGTTTCGGGACGTGCTAG	2.79
TCAGATTCCAGTTTCGATTAGTGCTAG	7.1
TTAGAACTGAGTCTCGATTCGTGCTAG	0.608
TTTATTTTTACATTATTACCGTGCTAG	2.48
TCAGGTTTCGGGTTTCGGTTAGTGCTA	11.2
GACGGTCTCCTTTTCCTGCCGTGCTAG	1.35
GACGCTCTCAGTCTCGAGACGTGCTAG	0.643
GTCGGTATCGGGACTGGGGACGTGCTA	-0.121
TTAGGTATCGACACTGGGGTAGTGCTA	-0.0421
GACGGTTTCGGTTCCGTGACGTGCTAG	11.4
TCATCTTTCCCTGCCCCATGGTGCTAG	1.35
ATAGGACTGGGTATCGGTTAGTGCTAG	0.0546

Study 2 — target: CCNA1, cyclin fold, Cln2 fusion (human); method: yeast growth competition, sequencing; matrix: yeast; notes: weak parent motif; baseline: not given; direction: higher = stronger binding
Starting sequence: PKMYT1 docking peptide (human); SFEPRNLLSLFED; partner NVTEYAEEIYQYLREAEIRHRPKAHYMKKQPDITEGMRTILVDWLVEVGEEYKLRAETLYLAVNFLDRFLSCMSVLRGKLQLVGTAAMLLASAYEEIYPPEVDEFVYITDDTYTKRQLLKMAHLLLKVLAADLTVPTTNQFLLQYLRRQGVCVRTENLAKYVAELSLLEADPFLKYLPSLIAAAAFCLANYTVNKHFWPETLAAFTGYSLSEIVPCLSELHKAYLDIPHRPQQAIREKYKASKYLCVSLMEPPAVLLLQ
Substitution	normalised enrichment score
E3F	-0.0202
R5D	0.173
P4K	0.402
L10E	0.459
S9A	0.143
E12C	0.165
N6R	0.368
P4A	0.217
F11C	0.159
E3P	0.173
F2K	0.323
L8C	0.278
S1D	0.143
S1P	0.119
E3T	0.136
N6K	0.0995
L7M	0.372
N6V	0.188

Study 3 — method: RNA Bind-n-Seq; form: RNA; matrix: in vitro; concentration: 1 µM; notes: whole 134-nt RNA, ends assumed; together with: 150 mM KCl; baseline: input library; direction: higher = stronger binding
Target: Ras GTPase-activating protein-binding protein 1, C-terminal RGG region (G3BP1, Homo sapiens, UniProt Q13283)
UniProt Q13283, sequence (whole entry, looked up): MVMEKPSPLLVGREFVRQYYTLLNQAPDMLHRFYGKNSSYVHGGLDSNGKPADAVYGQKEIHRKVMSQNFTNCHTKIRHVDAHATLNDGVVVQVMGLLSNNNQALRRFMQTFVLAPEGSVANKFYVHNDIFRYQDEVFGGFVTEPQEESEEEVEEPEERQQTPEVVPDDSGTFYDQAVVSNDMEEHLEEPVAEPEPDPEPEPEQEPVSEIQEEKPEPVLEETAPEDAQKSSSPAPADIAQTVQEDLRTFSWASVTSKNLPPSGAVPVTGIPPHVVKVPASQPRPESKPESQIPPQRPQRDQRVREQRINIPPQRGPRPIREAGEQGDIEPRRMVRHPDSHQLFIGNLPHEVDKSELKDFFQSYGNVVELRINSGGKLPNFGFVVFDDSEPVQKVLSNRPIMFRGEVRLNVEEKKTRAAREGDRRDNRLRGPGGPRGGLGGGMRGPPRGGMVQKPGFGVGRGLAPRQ
All sequences stand within: GGGAGUUCUACAGUCCGACGAUC … UGGAAUUCUCGGGUGUCAAGG
Oligonucleotide	log2 enrichment
UGGCCCUGGUGGCAUGCGGGGAGGAAGAGGUGGCCUCAUGGAUCGUGGUGGUCCCGGUGGAAUGUUCAGAGGUGGCCGUGGUGUAGACAG	3.45
CAAGUCCUGUGCUACACAUCGUAUGUACCGAAUCGGGAGGGUUUUUUUGGGUGGGAAAGUAUUAUGUUACGCCGUUCGGAUCUGCACUUC	0.452
CCACCAUGACCCCUGACGGUCUGGCUGUGACCCCAACGCCGGUGCCCGUGGUCGGGAGCCAGAUGACCAGACAAGCCCGGCGCCUCUACG	-0.792
CUCAAGUCCUGUGCUACACAUCGUAUGUACCGAAUCGGAAAGGAAAAAGGUGGAAAGUAUUAUGUUACGCCGUUCGGAUCUGCACUUCCA	-1.3
UCAAGUCCUGUGCUACACAUCGUAUGUACCGAAUCGGAAAAAAAGGAGGAAAGGAAAGUAUUAUGUUACGCCGUUCGGAUCUGCACUUCC	-1.5

Study 4 — method: DHFR PCA, deep sequencing; matrix: yeast; together with: (+)-ABA 0.11 µM; baseline: wild-type fitted maximum; direction: higher = stronger binding
Target: ABI1, truncated, D143A, DHFR fusion (Arabidopsis thaliana)
Notes: methotrexate growth selection, single substitutions
Starting sequence: PYL1, truncated, DHFR fusion (Arabidopsis thaliana); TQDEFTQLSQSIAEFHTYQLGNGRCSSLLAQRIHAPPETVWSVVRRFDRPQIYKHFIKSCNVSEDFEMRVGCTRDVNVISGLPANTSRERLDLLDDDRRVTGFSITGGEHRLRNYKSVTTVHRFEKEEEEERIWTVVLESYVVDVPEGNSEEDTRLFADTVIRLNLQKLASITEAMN; partner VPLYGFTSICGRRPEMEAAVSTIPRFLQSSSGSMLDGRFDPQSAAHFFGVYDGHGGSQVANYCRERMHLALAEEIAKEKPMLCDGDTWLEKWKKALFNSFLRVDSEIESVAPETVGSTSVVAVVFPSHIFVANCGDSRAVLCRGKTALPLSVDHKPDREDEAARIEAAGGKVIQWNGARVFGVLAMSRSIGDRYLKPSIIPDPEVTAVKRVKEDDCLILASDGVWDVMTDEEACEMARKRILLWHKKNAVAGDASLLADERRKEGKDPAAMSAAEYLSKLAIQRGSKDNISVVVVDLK
Substitution	relative binding score
I133C	53.9%
E151D	21.9%
I12S	0.833%
A13K	49.2%
G81M	8.66%
F5M	43.9%
E38L	-1.2%
Q51W	-3.75%
V100M	5.13%
D97Q	35.8%

Some of these lines once more (study 2):
Substitution	normalised enrichment score
S1P	0.119
E3P	0.173
L7M	0.372
